Published values pooled from the literature.
Numbered parts are unrelated; each lists some results of a single study. “And” joins repeats or separate records; there may be more than shown.
UniProt Q00535, sequence (whole entry, looked up): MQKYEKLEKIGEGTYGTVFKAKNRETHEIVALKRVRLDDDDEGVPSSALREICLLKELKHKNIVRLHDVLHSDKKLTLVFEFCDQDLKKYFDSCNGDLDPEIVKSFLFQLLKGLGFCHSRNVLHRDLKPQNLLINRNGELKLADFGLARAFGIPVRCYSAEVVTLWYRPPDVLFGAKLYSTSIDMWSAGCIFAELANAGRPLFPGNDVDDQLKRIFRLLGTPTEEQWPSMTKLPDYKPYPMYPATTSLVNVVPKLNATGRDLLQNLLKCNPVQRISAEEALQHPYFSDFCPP
UniProt Q8NE63, sequence (whole entry, looked up): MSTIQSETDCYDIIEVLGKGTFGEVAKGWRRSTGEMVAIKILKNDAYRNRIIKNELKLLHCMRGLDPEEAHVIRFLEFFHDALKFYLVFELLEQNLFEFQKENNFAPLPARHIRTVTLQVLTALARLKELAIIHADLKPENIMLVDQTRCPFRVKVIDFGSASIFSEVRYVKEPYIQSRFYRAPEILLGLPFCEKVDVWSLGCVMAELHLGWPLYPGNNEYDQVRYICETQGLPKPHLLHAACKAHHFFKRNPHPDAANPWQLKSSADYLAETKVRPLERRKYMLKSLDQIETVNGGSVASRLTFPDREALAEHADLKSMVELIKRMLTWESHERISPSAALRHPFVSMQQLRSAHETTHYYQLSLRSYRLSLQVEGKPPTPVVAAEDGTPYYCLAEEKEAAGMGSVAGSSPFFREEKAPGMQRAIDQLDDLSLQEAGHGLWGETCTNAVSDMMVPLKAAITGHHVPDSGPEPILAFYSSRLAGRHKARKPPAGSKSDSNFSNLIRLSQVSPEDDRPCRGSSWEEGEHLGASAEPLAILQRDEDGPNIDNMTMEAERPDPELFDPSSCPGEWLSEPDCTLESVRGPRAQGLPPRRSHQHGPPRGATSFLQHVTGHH
UniProt Q9UHD2, sequence (whole entry, looked up): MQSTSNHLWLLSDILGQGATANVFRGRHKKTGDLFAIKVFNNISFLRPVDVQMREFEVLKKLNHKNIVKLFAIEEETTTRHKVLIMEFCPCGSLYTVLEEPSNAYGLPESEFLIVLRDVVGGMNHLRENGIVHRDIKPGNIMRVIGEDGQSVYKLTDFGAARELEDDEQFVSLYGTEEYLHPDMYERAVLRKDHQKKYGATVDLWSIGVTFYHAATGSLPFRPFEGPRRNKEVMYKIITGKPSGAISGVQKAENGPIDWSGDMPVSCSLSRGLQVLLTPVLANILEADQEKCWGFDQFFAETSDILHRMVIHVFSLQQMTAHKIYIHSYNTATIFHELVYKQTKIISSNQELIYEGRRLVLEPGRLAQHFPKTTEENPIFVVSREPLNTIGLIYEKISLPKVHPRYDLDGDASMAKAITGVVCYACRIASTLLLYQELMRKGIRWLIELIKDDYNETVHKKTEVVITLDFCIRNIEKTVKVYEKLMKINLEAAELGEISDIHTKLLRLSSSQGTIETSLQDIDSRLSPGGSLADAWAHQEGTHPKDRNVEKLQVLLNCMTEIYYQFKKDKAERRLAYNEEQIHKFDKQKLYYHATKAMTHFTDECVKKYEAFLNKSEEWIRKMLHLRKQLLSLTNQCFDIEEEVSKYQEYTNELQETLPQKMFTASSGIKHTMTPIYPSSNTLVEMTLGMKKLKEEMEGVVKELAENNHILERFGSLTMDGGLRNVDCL
UniProt Q00536, sequence (whole entry, looked up): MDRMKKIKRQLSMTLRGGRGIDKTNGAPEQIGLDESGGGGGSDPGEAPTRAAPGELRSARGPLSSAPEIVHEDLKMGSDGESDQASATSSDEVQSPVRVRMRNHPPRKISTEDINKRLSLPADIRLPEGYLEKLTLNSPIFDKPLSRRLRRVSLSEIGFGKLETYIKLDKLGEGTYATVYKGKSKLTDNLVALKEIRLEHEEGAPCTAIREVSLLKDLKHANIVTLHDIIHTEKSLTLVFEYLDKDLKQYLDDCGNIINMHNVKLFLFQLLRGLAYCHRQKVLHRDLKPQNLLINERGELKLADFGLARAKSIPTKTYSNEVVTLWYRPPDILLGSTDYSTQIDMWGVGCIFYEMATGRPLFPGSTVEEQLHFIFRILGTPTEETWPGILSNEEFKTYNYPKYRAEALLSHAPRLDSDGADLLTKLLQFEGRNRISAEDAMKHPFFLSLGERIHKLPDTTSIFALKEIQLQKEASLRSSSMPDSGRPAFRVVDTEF
UniProt Q16816, sequence (whole entry, looked up): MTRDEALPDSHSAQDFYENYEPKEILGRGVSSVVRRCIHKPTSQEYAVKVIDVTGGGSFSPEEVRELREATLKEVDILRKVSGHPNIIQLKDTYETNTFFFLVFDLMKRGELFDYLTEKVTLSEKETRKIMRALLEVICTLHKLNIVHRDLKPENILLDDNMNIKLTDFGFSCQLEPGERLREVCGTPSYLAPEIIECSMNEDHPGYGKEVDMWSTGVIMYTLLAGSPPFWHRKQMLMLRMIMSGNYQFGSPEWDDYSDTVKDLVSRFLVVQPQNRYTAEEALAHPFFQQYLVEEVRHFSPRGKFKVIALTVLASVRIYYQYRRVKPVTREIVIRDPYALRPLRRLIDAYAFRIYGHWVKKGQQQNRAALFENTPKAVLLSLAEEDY
UniProt Q15831, sequence (whole entry, looked up): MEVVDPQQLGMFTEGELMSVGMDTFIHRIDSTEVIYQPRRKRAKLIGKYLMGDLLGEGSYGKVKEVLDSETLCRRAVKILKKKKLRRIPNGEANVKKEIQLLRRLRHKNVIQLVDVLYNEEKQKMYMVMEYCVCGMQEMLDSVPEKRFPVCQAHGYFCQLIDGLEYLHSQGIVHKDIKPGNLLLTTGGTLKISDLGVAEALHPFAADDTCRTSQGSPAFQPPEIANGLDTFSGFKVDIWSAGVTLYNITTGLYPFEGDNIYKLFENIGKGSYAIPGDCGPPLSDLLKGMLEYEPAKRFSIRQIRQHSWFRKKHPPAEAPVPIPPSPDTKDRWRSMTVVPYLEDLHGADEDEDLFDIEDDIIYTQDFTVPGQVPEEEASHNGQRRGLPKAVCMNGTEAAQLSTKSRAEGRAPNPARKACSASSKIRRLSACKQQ
UniProt P0C1S8, sequence (whole entry, looked up): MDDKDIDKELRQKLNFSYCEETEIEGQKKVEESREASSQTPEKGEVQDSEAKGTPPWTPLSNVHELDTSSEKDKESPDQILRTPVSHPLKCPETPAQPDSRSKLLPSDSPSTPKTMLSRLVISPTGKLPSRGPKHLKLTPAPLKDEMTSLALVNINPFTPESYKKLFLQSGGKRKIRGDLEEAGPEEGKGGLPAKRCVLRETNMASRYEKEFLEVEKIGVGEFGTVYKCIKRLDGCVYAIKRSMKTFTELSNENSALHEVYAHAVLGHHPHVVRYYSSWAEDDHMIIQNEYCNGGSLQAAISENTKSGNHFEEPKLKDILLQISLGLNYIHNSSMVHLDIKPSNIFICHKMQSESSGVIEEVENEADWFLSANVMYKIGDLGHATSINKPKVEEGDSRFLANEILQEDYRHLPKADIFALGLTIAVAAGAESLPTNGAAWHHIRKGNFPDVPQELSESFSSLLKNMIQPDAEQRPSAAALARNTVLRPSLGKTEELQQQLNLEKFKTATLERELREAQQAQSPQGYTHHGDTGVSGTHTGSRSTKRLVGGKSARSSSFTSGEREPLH
UniProt Q8IY84, sequence (whole entry, looked up): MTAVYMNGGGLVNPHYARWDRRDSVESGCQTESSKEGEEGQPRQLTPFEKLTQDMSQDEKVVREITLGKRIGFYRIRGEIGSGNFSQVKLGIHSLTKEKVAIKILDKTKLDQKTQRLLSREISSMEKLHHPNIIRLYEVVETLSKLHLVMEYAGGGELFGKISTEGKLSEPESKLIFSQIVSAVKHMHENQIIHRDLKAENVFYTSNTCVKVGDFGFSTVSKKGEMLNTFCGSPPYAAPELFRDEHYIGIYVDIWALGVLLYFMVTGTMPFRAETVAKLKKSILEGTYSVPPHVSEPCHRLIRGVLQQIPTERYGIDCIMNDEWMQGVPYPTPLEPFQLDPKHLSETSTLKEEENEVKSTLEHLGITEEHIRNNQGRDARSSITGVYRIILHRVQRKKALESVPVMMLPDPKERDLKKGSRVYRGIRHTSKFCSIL

Sample 1
Compound: O=C(N1CCS(=O)(=O)CC1)N1C[C@H](c2ccc(OC(F)(F)F)cc2)C[C@H](c2nc(C3CC3)no2)C1
Concentration: 1 µM
target | observed | technique | remaining binding
STK11 (Homo sapiens, UniProt Q15831) | cell-free assay | competition with immobilised ligand | 92%
TBK1 (Homo sapiens, UniProt Q9UHD2) | cell-free assay | competition with immobilised ligand | 94%
HIPK4 (Homo sapiens, UniProt Q8NE63) | cell-free assay | competition with immobilised ligand | 85%
CDK16 (Homo sapiens, UniProt Q00536) | cell-free assay | competition with immobilised ligand | 100%
CDK5 (Homo sapiens, UniProt Q00535) | cell-free assay | competition with immobilised ligand | 83%
NIM1K (Homo sapiens, UniProt Q8IY84) | cell-free assay | competition with immobilised ligand | 93%
MAP3K7 (Homo sapiens, UniProt O43318) | cell-free assay | competition with immobilised ligand | 100%
FLT3 (Homo sapiens, UniProt P36888) | cell-free assay | competition with immobilised ligand | 96%
SBK3 (Homo sapiens, UniProt P0C264) | cell-free assay | competition with immobilised ligand | 98%
STK38L (Homo sapiens, UniProt Q9Y2H1) | binding | competition with immobilised ligand | 100%
Tyrosine-protein kinase ABL1, phosphorylated (ABL1, Homo sapiens, UniProt P00519, F317I) | binding | – | 100%
PHKG1 (Homo sapiens, UniProt Q16816) | cell-free assay | competition with immobilised ligand | 94%
WEE2 (Homo sapiens, UniProt P0C1S8) | cell-free assay | competition with immobilised ligand | 100%
MAP3K9 (Homo sapiens, UniProt P80192) | cell-free assay | competition with immobilised ligand | 100%

Sample 2
Structure (SMILES): COc1ccc(-c2c(Nc3ccccn3)[nH]c3c(C4=CCCCC4)c(-c4ccccc4)nn3c2=O)cc1
Medium: plasma
Route: oral
Setting: single dose
technique | species | dose | time | plasma concentration, geometric mean [ng/mL]
– | cancer patients | 200 mg | 6 h post-dose | 1270
– | cancer patients | 400 mg | 3 h post-dose | 915
– | cancer patients | 200 mg | 2 h post-dose | 709
– | cancer patients | 400 mg | 2 h post-dose | 698
– | cancer patients | 150 mg | 6 h post-dose | 1230
– | cancer patients | 400 mg | 4 h post-dose | 1140
LC-MS/MS | human | 200 mg twice daily | 72 h | 148
– | cancer patients | 50 mg | 6 h post-dose | 394

Sample 3
Cell line: mouse MPNST tumor cells
Technique: high-content immunofluorescence imaging
Refers to: nuclear SOX9
Concentration: 10 µM
Time: 12 h
Setting: mean of 2 replicates
Baseline: DMSO control
Reading: higher = more nuclear SOX9
SMILES | nuclear SOX9 intensity
C[C@H](CCC(=O)O)[C@H]1CC[C@H]2[C@@H]3C(=O)C[C@@H]4CC(=O)CC[C@]4(C)[C@H]3CC(=O)[C@]12C | 95.6 % of DMSO
OCC(O)COc1ccc(Cl)cc1 (stereo not shown) | 101 % of DMSO
Cc1ccc(S(=O)(=O)n2c(N)nc3ccccc32)cc1 | 102 % of DMSO
CC[N+](C)(CC)CCOC(=O)C1c2ccccc2Oc2ccccc21 | 96.5 % of DMSO
COc1ccc(Oc2c(Cl)cnn(C3c4ccccc4-c4ccccc43)c2=O)cc1 | 107 % of DMSO
COc1cc(C(=O)OCCCN2CCCN(CCCOC(=O)c3cc(OC)c(OC)c(OC)c3)CC2)cc(OC)c1OC | 247 % of DMSO
COCCOC(=O)C1=C(C)NC(C)=C(C(=O)OC/C=C/c2ccccc2)C1c1cccc([N+](=O)[O-])c1 (stereo not shown) | 136 % of DMSO and 137 % of DMSO
Cn1c(CNc2cccc(C(=O)NCc3ccccc3C(F)(F)F)c2)nnc1-c1ccncc1 | 121 % of DMSO
CCCCOCCOc1nc(-c2ccc(C(=O)O)c(F)c2)sc1C | 121 % of DMSO
CN(C)CCN(Cc1ccccc1)c1ccccn1 | 105 % of DMSO
CC1(C)CCC(C)(C)c2cc3cc(-c4cc(C(=O)O)cs4)ccc3cc21 | 111 % of DMSO
CC(C)C(NC(=O)Cn1c(-c2ccccc2)ncc(N)c1=O)C(=O)c1nnc(C(C)(C)C)o1 (stereo not shown) | 90.3 % of DMSO
COc1ccccc1O | 109 % of DMSO

Sample 4
Target: Ephrin type-B receptor 2 (EPHB2, Homo sapiens, UniProt P29323)
UniProt P29323, sequence (whole entry, looked up): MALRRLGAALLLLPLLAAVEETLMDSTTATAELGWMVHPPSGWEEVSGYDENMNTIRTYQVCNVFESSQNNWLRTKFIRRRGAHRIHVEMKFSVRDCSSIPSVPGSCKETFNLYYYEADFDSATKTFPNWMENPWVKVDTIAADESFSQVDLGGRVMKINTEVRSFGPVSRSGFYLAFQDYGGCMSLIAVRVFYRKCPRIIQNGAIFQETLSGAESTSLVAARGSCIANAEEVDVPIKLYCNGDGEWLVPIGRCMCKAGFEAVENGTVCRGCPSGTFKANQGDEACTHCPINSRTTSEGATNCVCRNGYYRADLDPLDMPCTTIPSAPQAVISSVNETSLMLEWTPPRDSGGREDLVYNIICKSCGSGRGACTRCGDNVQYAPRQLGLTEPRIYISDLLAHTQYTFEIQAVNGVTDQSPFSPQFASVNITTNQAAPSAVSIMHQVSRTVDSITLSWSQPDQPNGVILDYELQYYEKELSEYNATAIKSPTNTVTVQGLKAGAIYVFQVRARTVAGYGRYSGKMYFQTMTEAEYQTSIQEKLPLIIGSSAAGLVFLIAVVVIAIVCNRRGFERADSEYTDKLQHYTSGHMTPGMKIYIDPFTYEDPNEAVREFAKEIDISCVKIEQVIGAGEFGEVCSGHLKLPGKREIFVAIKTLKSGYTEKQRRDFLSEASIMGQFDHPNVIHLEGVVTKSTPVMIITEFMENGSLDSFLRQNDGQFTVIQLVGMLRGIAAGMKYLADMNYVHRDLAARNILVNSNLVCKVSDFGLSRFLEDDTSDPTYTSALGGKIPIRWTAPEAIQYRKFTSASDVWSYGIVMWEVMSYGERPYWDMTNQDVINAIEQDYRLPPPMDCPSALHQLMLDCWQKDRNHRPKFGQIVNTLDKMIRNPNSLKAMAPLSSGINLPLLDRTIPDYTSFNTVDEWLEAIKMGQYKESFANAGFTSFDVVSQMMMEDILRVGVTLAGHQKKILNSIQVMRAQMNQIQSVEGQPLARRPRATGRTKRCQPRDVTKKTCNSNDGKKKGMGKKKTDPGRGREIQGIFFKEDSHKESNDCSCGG
Observed: enzyme activity
Action: inhibitor
Concentration: 0.5 µM
Baseline: control
Compound | remaining activity
Cn1nc2c3c(cccc31)C(=O)c1ccccc1-2 | 104%
COc1cc2ncnc(Nc3ccc(O)c(Br)c3)c2cc1OC | 66.1%
Nc1cccc(-c2cc3c(Oc4cccc(O)c4)ncnc3[nH]2)c1 | 40.7%
CN(C)C[C@H]1CCn2c(c(C3=C(c4cn(C)c5ccccc45)C(=O)NC3=O)c3ccccc32)C1 | 110%
C[C@@H]1CCN(C(=O)CC#N)C[C@@H]1N(C)c1ncnc2[nH]ccc12 | 100%
N#C/C(=C\c1ccc(O)c(O)c1)C(=O)NCc1ccccc1 | 99.7%
O=C(Nc1cccc(Nc2nccc(Nc3cccc(C(F)(F)F)c3)n2)c1)C1CC1 | 97.8%
CCN(CC)C(=O)c1ccc(Nc2nc(OCC3CCCCC3)c3[nH]cnc3n2)cc1 | 93.7%
CCOc1nc(NC(=O)Cc2cc(OC)ccc2OC)cc(N)c1C#N | 97.6%
N#Cc1c(NC(=O)c2cccc3ccccc23)sc2c1CCCC2 | 97.5%
Cc1cc2ncc(-c3ccccc3)nc2cc1C | 96.7%
Ic1cccc(CSc2nnc(-c3ccncc3)o2)c1 | 87.7%
c1ccc(-c2[nH]ncc2-c2ccnc3ccccc23)nc1 | 103%
c1ccc(-c2cnc(Nc3ccc(OCCN4CCCC4)cc3)s2)cc1 | 75.6%
O=c1cc(-c2cccc3c2Sc2ccccc2S3)oc(N2CCOCC2)c1 | 102%
O=C1C(Cl)=C(N2C(=O)CCC2=O)C(=O)c2ccccc21 | 98.7%
COc1cc2c(cc1OC)-c1[nH]nc(Nc3cccc(F)c3)c1C2 | 94.8%
O=C(NC(NC(=S)Nc1ccc(F)c([N+](=O)[O-])c1)C(Cl)(Cl)Cl)C(c1ccccc1)c1ccccc1 (stereo not shown) | 101%
Cc1nc2cc3nc(-c4cccs4)cnc3cc2n1C | 101%
Cc1cn(-c2cc(NC(=O)c3ccc(C)c(Nc4nccc(-c5cccnc5)n4)c3)cc(C(F)(F)F)c2)cn1 | 1.55%
CCN(CC)CCNC(=O)c1c(C)[nH]c(/C=C2\C(=O)Nc3ccc(F)cc32)c1C | 72.1%
CCN(CC)CCNC(=O)c1c(C)[nH]c(/C=C2\C(=O)Nc3ccc(Cl)cc32)c1C | 87.5%
O=C1c2ccccc2-c2n[nH]c3cccc1c23 | 100%

A few entries again (sample 3):
SMILES | nuclear SOX9 intensity
CC1(C)CCC(C)(C)c2cc3cc(-c4cc(C(=O)O)cs4)ccc3cc21 | 111 % of DMSO
CN(C)CCN(Cc1ccccc1)c1ccccn1 | 105 % of DMSO
COc1cc(C(=O)OCCCN2CCCN(CCCOC(=O)c3cc(OC)c(OC)c(OC)c3)CC2)cc(OC)c1OC | 247 % of DMSO
